Measured values collected from several papers.
Each line is one published result; not all experiments were run side by side. “And” joins repeats or separate records; there may be more than shown.
Target: Serine/threonine-protein kinase TAO3 (TAOK3, Homo sapiens, UniProt Q9H2K8)

Structure (SMILES) | observed | mode | method | concentration | baseline | endpoint | value
NC(=O)[C@@H](O)C[C@H]1CCc2sc3ncnc(O[C@H]4CC[C@H](N5CCOCC5)CC4)c3c21 | enzyme activity | inhibitor |  | 10 µM |  | inhibition | 1%
CNC1C[S+]2CC[S+]3CC[S+](C1)[Ru-4]321([N]=C=S)[n]2c3ccc(OC)cc3c3c4c(c5cc(F)c[n+]1c5c32)C(=O)NC4=O (stereo not drawn) |  |  | KinomeScan | 0.1 µM | untreated | remaining binding | 88%
CCN1CCN(Cc2ccc(C(=O)Nc3ccc(C)c(NCc4cnc5[nH]ccc5c4OC)c3)cc2C(F)(F)F)CC1 | binding |  | competition with immobilised ligand | 1 µM |  | remaining binding | 5.2%
CN1CCN(Cc2ccc(-c3ccc(CO[C@H]4CCC[C@@H]4NC(=O)c4cc(-c5cnn(C)c5)cnc4N)cc3)cc2)CC1 | enzyme activity | inhibitor |  | 0.1 µM |  | inhibition | 10%
C=CC(=O)Nc1cccc(-c2cnc3[nH]cc(C(=O)NC(C)(C)C)c3n2)c1 | kinase activity |  |  | 0.1 µM |  | inhibition | 21% and 22%
Nc1ncc2c(n1)-c1c([nH]c3ccc(C4=CCOCC4)cc13)CCC2 | binding |  | competition with immobilised ligand | 1 µM |  | remaining binding | 100%
O=C(Cc1ccc(OCc2ccccc2)cc1)NC1(C(=O)O)CCN(C(=O)c2ccc(-c3cccc(Cl)c3)cc2)CC1 | enzyme activity | inhibitor |  | 10 µM |  | activity vs control | 139%
Cc1cccc(O[C@H]2CCC[C@@H](C(C)CNCc3ccncc3)C2)c1 (relative stereo) | enzyme activity | inhibitor |  | 10 µM |  | inhibition | -11%
CN1CC[C@@H](COc2cnc(C#N)cc2-c2ccn3nc(NC(=O)C4CC4)cc3c2)C1 | enzyme activity | inhibitor |  | 1 µM |  | inhibition | 4%
C=CC(=O)N1Cc2nc(-c3cc(-c4cc(Cl)cnc4Cl)c(F)cc3F)n(-c3ccncn3)c2C1 | cell-free assay | inhibitor |  | 1 µM |  | inhibition | -0.8%
COc1cc(Nc2nccc(-c3cnn4nc(OC)ccc34)n2)cc(C(F)(F)F)c1 | binding |  | competition with immobilised ligand | 1 µM |  | remaining binding | 72%
COc1c(Cl)cccc1Nc1c(-c2ccncc2C#C[C@@]2(C)CCCN2C(=O)/C=C/CN(C)C)[nH]c2c1C(=O)NCC2 | binding |  | competition with immobilised ligand | 3 µM |  | remaining binding | 27%
CNC(=O)C1CCN(c2cc(C)c(F)cc2NC(=O)c2ccc(-c3cc(O)ccc3C)c(C)c2)CC1 | binding |  | competition with immobilised ligand | 1 µM |  | remaining binding | 96%
Cc1cnc2nc1Nc1cccc(c1)COC/C=C/COCc1cc(ccc1OCCN1CCOCC1)N2 | binding |  | competition with immobilised ligand | 0.1 µM |  | remaining binding | 100%
C=CC(=O)N1CCc2ccc(-n3c(=O)ccc4cnc5ccc(-c6cnn(C)c6)cc5c43)cc21 |  |  | KINOMEscan | 1 µM | DMSO control | remaining binding | 97%

A few entries again:
Structure (SMILES) | observed | mode | method | concentration | baseline | endpoint | value
CNC1C[S+]2CC[S+]3CC[S+](C1)[Ru-4]321([N]=C=S)[n]2c3ccc(OC)cc3c3c4c(c5cc(F)c[n+]1c5c32)C(=O)NC4=O (stereo not drawn) |  |  | KinomeScan | 0.1 µM | untreated | remaining binding | 88%
CCN1CCN(Cc2ccc(C(=O)Nc3ccc(C)c(NCc4cnc5[nH]ccc5c4OC)c3)cc2C(F)(F)F)CC1 | binding |  | competition with immobilised ligand | 1 µM |  | remaining binding | 5.2%
